# Published values collected from several papers.
# Protocols differ between the studies behind these lines. Numbers after ± are the reported error.
Compound,cell line,test,test system,setting,scale,measurement,result
COc1cc(CNC(=O)C[C@H](C)CCC=C(C)C)ccc1OCc1cn(-c2ccc([N+](=O)[O-])cc2)nn1,MOLT-4 leukaemia cells,SRB,,"10 µM, 48 h",,growth percent,64.2%
CC(=C(c1ccc(O)cc1)c1ccc(Cl)cc1)c1ccc(Cl)cc1,SR,cell growth or viability,,,,GI50,0.74 µM
COc1ccc([C@@H]2CC(=O)c3c(O)cc(O[C@@H]4O[C@H](CO[C@@H]5O[C@@H](C)[C@H](O)[C@@H](O)[C@H]5O)[C@@H](O[C@H]5O[C@H](CO)[C@@H](O)[C@H](O)[C@H]5O)[C@H](O)[C@H]4O)cc3O2)cc1O,A549,trypan blue exclusion,,"150 µg/mL, 48 h",,cell count,7920 ± 678
O=C(Nc1ccc(C(F)(F)F)cc1Cl)c1cc(Cl)ccc1O,PC-3 (AR-negative),,,"concentration not given, 3 days, dose-dependent",,cell growth,decreased
COc1cc(CNC(=O)C[C@H](C)CCC=C(C)C)ccc1OCc1cn(-c2ccccc2)nn1,MOLT-4 leukaemia cells,SRB,,"10 µM, 48 h",,growth percent,54.6%
CC1=CC(C)=[N+]2C1=C(CO)c1c(C)cc(C)n1[B-]2(C)C,RPE-1,resazurin,,"0.1667 h, added: 510 nm light, 10 min",relative to: dark over light IC50,phototoxicity index,76 ± 14
CCCCCCC(CC=CCCCCCCCC(=O)OCCOCn1cnc2c(=O)[nH]c(N)nc21)OC(=O)CCCCC1SCC2NC(=O)NC21 (stereo not shown),HCEC,,,"37 °C, sodium-free buffer",relative to: uptake with sodium,uptake,~43%
Cc1c(C)c(C)[c-](C)c1C.O=C1c2cccc[n+]2[Ir]([Cl])[N]1CCCCCCCCCC[P+](c1ccccc1)(c1ccccc1)c1ccccc1.[Br-],SH-SY5Y,SRB,,"concentration not given, added: 4-hydroxynonenal 150 µM",relative to: 4-hydroxynonenal alone,cell viability,1.5 fold
COc1ccc(CC2COC(=O)C2Cc2ccc3c(c2)OCO3)cc1OC (mixture of isomers),A2780cis,refers to: multi-caspase,,"3.25 µM, 72 h",relative to: untreated,live cells,decreased
CCCCc1ccc(C(=O)O[C@@H]2CC(=O)O[C@H](C)C/C=C/C=C/[C@H](O[C@H]3CC[C@H](N(C)C)[C@@H](C)O3)[C@H](C)C[C@H](CC=O)[C@H](O[C@@H]3O[C@H](C)[C@@H](O[C@H]4C[C@@](C)(O)[C@@H](O)[C@H](C)O4)[C@H](N(C)C)[C@H]3O)[C@H]2OC)cc1,GES-1 and HGC-27,"cell growth, CCK-8",,72 h,relative to: IC50 GES-1 over HGC-27,selectivity index,5.09
O=C1CCC(N2C(=O)c3ccc(N4CCC(C(=O)N5CCC(CCN6CCC(CNC(=O)c7cccc(-c8noc(C(F)(F)F)n8)c7)(c7nc(-c8ccccc8)cs7)CC6)CC5)CC4)cc3C2=O)C(=O)N1 (stereo not shown),DHL6,flow cytometry,,"1 µM, 48 h",,sub-G0 cells,99.3%
CC(C)C[C@@H](OC(=O)[C@@H](NC(=O)[C@@H](C)O)C(C)C)C(=O)N[C@@H](C(=O)OC(C)(C)C)C(C)C,P388,cell growth,DMSO,,,ED50,> 10 µg/mL
COc1cc(CNC(=O)C[C@H](C)CCC=C(C)C)ccc1OCc1cn(-c2ccccc2[N+](=O)[O-])nn1,IGROV-1 ovarian cancer cells,SRB,,"10 µM, 48 h",,growth percent,78.9%
CCC(=O)N(C)c1ccc(Cl)c(Cl)c1,primary mouse osteoclasts,"osteoclast multinucleation, refers to: TRAP-positive cells",,"50 µM, 5 d, added: RANKL and M-CSF",,inhibition,~50%
COc1cc(CNC(=O)C[C@H](C)CCC=C(C)C)ccc1OCc1cn(-c2ccc(Cl)cc2Cl)nn1,IGROV-1 ovarian cancer cells,SRB,,"10 µM, 48 h",,growth percent,72.3%
C1=[N+]2CCCC[N+]3=Cc4ccc5[n]4[Au-]23[n]2c1ccc2-c1nc2ccccc2nc1-5.F[P-](F)(F)(F)(F)F,prostate cancer cell lines,,,NCI60 panel mean,,GI50,7 µM
CC[C@H](C(=O)N1CCCC[C@H]1C(=O)O[C@H](CCc1ccc(OC)c(OC)c1)c1cccc(OCC(=O)NCCC(=O)N2CCN(CCCOc3cc4c(Nc5ccc(F)c(Cl)c5)ncnc4cc3OC)CC2)c1)c1cc(OC)c(OC)c(OC)c1,HeLa FKBP12 F36V-PTPN2 knock-in,degrader,,"5 µM, 6 days",,decrease in viability,78.5%
COc1cc(CNC(=O)C[C@H](C)CCC=C(C)C)ccc1OCc1cn(-c2ccc(F)cc2)nn1,MOLT-4 leukaemia cells,SRB,,"10 µM, 48 h",,growth percent,67.5%
CCCCCCCCCC[N]1C(=O)c2cccc[n+]2[Ir]1[Cl].Cc1c(C)c(C)[c-](C)c1C,SH-SY5Y,SRB,,"concentration not given, 3 h, added: MPP+ 1 mM 24 h",relative to: MPP+ alone,cell viability,1.2 fold
CN(C)c1cc2ccccc2c(N)n1,LX-2,ELISA,supernatant,"20 µM, 24 h",,IFN-γ protein level,increased
COc1cc(CNC(=O)C[C@H](C)CCC=C(C)C)ccc1OCc1cn(-c2ccccc2F)nn1,MCF7 breast cancer cells,SRB,,"10 µM, 48 h",,growth percent,66.9%
CN1CCCNC(=O)c2cccc(c2)C(=O)NCCCN(C)CCCNc2cccc3c2C(=O)c2cccc(c2C3=O)NCCC1,cancer cell lines,cell proliferation,,,relative to: normal cells over HeLa,IC50 ratio,~20 fold
Cc1nn(-c2ccc(S(=O)(=O)N[C@@H](CO)CC(C)C)cc2)c2nn3nnnc3nc12,PC-3,PI/Hoechst staining,,"1 µM, 24 h",,necrotic cells,42.5 ± 3.53%
COc1cc(CNC(=O)C[C@H](C)CCC=C(C)C)ccc1OCc1cn(-c2cccc(C(F)(F)F)c2)nn1,IGROV-1 ovarian cancer cells,SRB,,"10 µM, 48 h",,growth percent,102%
O=C(c1ccc2ccccc2c1)c1cn(-c2ccccc2)nc1C1=Nn2c(Cc3nnc4n3N=C(c3nn(-c5ccccc5)cc3C(=O)c3ccc5ccccc5c3)CS4)nnc2SC1,MCF7 cells,annexin V/PI flow cytometry,,"0.39 µM, 48 h",,total apoptotic cells,43.3%
COc1cc(/C=C/C(=O)/C=C(O)/C=C/c2ccc(OCC(=O)N3CCOCCOCCOCCOCC3)c(OC)c2)ccc1OCC(=O)N1CCOCCOCCOCCOCC1,COS-7,"cell growth or viability, SRB",,5 µM,,inhibition,12.3%
CN[C@@H](C)C(=O)N[C@H]1CN(C(=O)Cc2ccccc2)CC[C@H]2CC[C@@H](C(=O)NCc3ccc(Br)cc3)N2C1=O,SK-OV-3,"caspase-8, caspase-3, PARP cleavage, western blot",,24 h,,onset concentration,≥ 0.3 µM
O=Cc1c(O)ccc2ccccc12,HUVEC,"RNA sequencing, refers to: HSPA6",,"75 µM, 24 h",relative to: DMSO,log2 fold change,3.52
